Experimental data of several laboratories.
Every numbered part comes from another study and shows a few of its results, in no order.
Chain of UniProt Q9BUB5 (whole entry, looked up): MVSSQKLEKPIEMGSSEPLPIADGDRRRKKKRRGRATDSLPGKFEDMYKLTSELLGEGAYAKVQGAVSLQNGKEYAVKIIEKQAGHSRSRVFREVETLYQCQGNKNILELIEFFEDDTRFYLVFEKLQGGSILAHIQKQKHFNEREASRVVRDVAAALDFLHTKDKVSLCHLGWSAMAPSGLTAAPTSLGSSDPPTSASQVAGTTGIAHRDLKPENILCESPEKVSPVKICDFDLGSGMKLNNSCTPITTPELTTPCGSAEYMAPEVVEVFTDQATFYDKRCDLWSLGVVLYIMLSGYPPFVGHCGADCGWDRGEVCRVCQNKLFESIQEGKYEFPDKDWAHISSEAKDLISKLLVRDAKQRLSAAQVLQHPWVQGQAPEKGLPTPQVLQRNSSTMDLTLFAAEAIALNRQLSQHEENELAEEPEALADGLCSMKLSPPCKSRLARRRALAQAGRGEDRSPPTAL

Set 1
Target: Probable WRKY transcription factor 11, DNA-binding domain (WRKY11, Arabidopsis thaliana, UniProt Q9SV15, residues 228-325)
Technique: DNA-protein interaction ELISA
Form: double-stranded DNA, one strand shown
Matrix: in vitro, bacterial lysate
Tested at: not given
Notes: whole dsDNA probe, crude lysate protein
Relative to: highest signal in screen
Reading: higher = stronger binding
Construct (chain): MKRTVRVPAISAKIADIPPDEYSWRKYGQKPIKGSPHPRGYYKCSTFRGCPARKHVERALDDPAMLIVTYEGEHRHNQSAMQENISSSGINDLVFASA
| Oligonucleotide | relative absorbance |
| --- | --- |
| AAAAAAATGGTGCCGCTGAGCAAATTAAAA | 13.5 % of maximum |
| AAAAAACCCTAACGAATGCTTTTCGGAAAA | 17.3 % of maximum |
| AAAAAATGATGTTGGCGCATTTAAACAAAA | 12.7 % of maximum |
| AAAAAATTCTAACTTAGCCTATGTCCAAAA | 16.7 % of maximum |
| AAAAAAGGTCCAGTCCACGTCATCAGAAAA | 44.4 % of maximum |
| AAAAAAACAGCTCGGTGCCACTGTGGAAAA | 16.7 % of maximum |
| AAAAAAAGGGTCCGGTGCATACATGTAAAA | 13.3 % of maximum |
| AAAAAAAGTTTGACCTTGGCGTTCGTAAAA | 98 % of maximum |

Set 2
Target: RING finger protein unkempt homolog, zinc fingers 1-6, GST-SBP tag (UNK, Homo sapiens, UniProt Q9C0B0, residues 30-357)
Chain of UniProt Q9C0B0 (30-357, looked up): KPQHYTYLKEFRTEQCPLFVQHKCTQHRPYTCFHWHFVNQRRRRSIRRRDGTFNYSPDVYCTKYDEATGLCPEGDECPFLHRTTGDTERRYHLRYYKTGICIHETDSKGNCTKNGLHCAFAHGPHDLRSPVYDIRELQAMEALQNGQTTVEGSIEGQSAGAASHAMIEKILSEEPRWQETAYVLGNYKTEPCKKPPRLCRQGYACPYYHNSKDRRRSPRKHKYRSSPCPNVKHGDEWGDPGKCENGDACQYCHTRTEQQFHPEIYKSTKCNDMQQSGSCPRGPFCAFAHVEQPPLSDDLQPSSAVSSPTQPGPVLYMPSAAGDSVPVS
Technique: RNA Bind-n-Seq
Form: RNA
Matrix: in vitro
Tested at: not given
Notes: RNA with constant flanks, human and mouse sites, ends assumed
Relative to: input RNA pool
Reading: higher = stronger binding
All sequences stand within: GGGAGUUCUACAGUCCGACGAUC … CAACAGAGGAUUGAGCAUCA
| Oligonucleotide | bound/input enrichment [ratio] |
| --- | --- |
| AUAGAUAAAUGCAGACAGCAGCUGCACGAUAUCACGGUGCCUCUGGAAGUUUUUGAAUACAUUGAUCAAGGUCGGAAUCCCCAGCUCUACACCAAAGAAUGCCUGGAGAGGGCUCUAGCU | 0.184 |
| UUGAGCAUACAUAUACAAUGUGUUUCAAAUGCUGCUUGUAAAAUUAAACCAUCAUCUAGAAUAGAGUUAAUUUAUUAUAAUCAAGCUACAAAUAGGUUUUCUUAAACCAGAGAUGCACUG | 4.41 |
| CAGGCUGCCAACUCUCCACCUAACCUUGGAGCAAAAAUUCCUCAAGGAUGUCAUAAACAAAGUUUACCAGAGGAAAUUUCUUCCUGUCUAAAUACAAAGUCUGAAGCUCUGAGAACAAAA | 0.122 |
| CCUCCCCAUUACCCCUAAAGUAGAACAUUUUUUAAAUUGUGUUGCCACCACUUCUAAAAAUUUAGCAAUAUUAGAAUAGGAUACUAGUGAAGUAAGAAAUUUUGCUUGUUGUUUUGCAAA | 302 |
| AACUUUAGGUGCACGAGGGGCACUUAUUGUUUUUGCUUUUCGUCCCCUCCCCCUGCUCUCCUAGGCCUGUAAUUCUCUUAAGGUCUACUGGAUCAUUCCUUGUACCCUGCAAAAUUCACU | 0.197 |
| GUAGCUUCUAGAGAUAAUUUUGAGGAUGAGACUGAAGAUGAUGAUCUGUUUGAAACUGAAUUUAGACAAUAUAAGAGAACAUACUACAUGACGAAGAUGGGCGUCGAUGUAGUAUCUGAU | 4.27 |
| ACGCGGAACAUGGCGCGUUCCUAGAAGCCGUUUUCGGCAUCAGUAGGCGGCAGCGUGUGGACUAGGAGCGUGGGGGACGAGGAAGCAACCAACGCCGCUUCGUGUGGACAAGUGGAAAGG | 0.228 |
| AAAAUUCCUCCUAUGGUAACCACAGAUCAAAAACAAGAAGAGAGUAAACUAGAGAAAGACAAAGCUUCAGCUCUUCAAGAAAAAAAGCCACUCCCUGAAGAAAAAAAACUAAUCCCUGAA | 0.266 |

Set 3
Target: Phosphate system positive regulatory protein PHO4, full length, GST-tagged (PHO4, Saccharomyces cerevisiae, UniProt P07270, residues 1-312)
Technique: competition protein-binding microarray
Form: double-stranded DNA, one strand shown
Matrix: in vitro
Tested at: 2 µM
Notes: whole 60-bp probe, lowest competitor level
With: Cbf1 competitor, 0.05 µM
Reading: higher = stronger binding
All sequences stand within: … GTCTTGATTCGCTTGACGCTGCTG
Residues (chain): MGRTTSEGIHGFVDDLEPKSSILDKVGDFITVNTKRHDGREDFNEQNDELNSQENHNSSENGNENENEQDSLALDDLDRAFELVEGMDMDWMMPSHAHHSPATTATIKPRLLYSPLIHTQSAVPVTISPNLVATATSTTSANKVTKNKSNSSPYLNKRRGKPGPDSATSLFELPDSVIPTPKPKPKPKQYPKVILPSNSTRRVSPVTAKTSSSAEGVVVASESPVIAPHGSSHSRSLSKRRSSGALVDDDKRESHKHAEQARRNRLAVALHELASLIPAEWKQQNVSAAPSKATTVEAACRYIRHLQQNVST
| Oligonucleotide | fluorescence intensity |
| --- | --- |
| TCTCTTTTGCATCGAAACGTGGGTAGATCGTACCGG | 13900 a.u. |
| CATACCCAACCTTGCCCTGTGGGTGAAGATATTTGT | 4790 a.u. |
| GTCTTGTCTCATTGGCACGTGTTTTTCCCCACTTCA | 14400 a.u. |
| TAAGAAGAAAGATCGAACGTGATTGTAATGCTCCAA | 8370 a.u. |
| TGCGCAACAACTTGTATAGTGGGTGTATGTCTAGAA | 5240 a.u. |
| TTGTTTTATTGCCTTCACGTTTATTAATGCTCAAAC | 8630 a.u. |
| CTTCTGTAAATTTGTTCTGTGGGTGGACGCGCCCCG | 4050 a.u. |
| TCATAGTAGGTTTGTCATGCGCGTTGGAAAAAGAAA | 6700 a.u. |

Further values, each from its own experiment
| Structure (SMILES) | target | observed | mode | tested at | relative to | endpoint | result |
| --- | --- | --- | --- | --- | --- | --- | --- |
| O=Nc1c(-c2c(O)[nH]c3cc(Br)ccc23)[nH]c2ccccc12 | MAP kinase-interacting serine/threonine-protein kinase 1 (MKNK1, Homo sapiens, UniProt Q9BUB5) | enzyme activity | inhibitor | 0.5 µM | control | remaining activity | 102% |

Repeated from above (set 2):
| Oligonucleotide | bound/input enrichment [ratio] |
| --- | --- |
| AACUUUAGGUGCACGAGGGGCACUUAUUGUUUUUGCUUUUCGUCCCCUCCCCCUGCUCUCCUAGGCCUGUAAUUCUCUUAAGGUCUACUGGAUCAUUCCUUGUACCCUGCAAAAUUCACU | 0.197 |
| GUAGCUUCUAGAGAUAAUUUUGAGGAUGAGACUGAAGAUGAUGAUCUGUUUGAAACUGAAUUUAGACAAUAUAAGAGAACAUACUACAUGACGAAGAUGGGCGUCGAUGUAGUAUCUGAU | 4.27 |
| ACGCGGAACAUGGCGCGUUCCUAGAAGCCGUUUUCGGCAUCAGUAGGCGGCAGCGUGUGGACUAGGAGCGUGGGGGACGAGGAAGCAACCAACGCCGCUUCGUGUGGACAAGUGGAAAGG | 0.228 |
| AAAAUUCCUCCUAUGGUAACCACAGAUCAAAAACAAGAAGAGAGUAAACUAGAGAAAGACAAAGCUUCAGCUCUUCAAGAAAAAAAGCCACUCCCUGAAGAAAAAAAACUAAUCCCUGAA | 0.266 |
